Assay results from different studies.
Each numbered part is a random draw from the data of one study; scales do not carry over between parts.

Set 1
Target: RING finger protein unkempt homolog, zinc fingers 1-6, GST-SBP tag (UNK, Homo sapiens, UniProt Q9C0B0, residues 30-357)
Technique: RNA Bind-n-Seq
Molecule type: RNA
Matrix: in vitro
Concentration: not given
Notes: RNA with constant flanks, human and mouse sites, ends assumed
Baseline: input RNA pool
Direction: higher = stronger binding
All sequences stand within: GGGAGUUCUACAGUCCGACGAUC … CAACAGAGGAUUGAGCAUCA
Target sequence (chain): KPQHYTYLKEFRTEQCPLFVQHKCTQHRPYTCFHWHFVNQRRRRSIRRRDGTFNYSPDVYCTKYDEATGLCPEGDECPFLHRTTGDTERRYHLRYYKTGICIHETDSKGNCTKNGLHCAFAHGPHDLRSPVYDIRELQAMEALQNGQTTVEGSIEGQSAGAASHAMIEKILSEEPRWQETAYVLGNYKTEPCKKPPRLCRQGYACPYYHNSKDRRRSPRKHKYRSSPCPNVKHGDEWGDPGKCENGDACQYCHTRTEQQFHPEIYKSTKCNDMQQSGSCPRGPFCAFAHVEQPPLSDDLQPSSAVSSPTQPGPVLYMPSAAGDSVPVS
| Oligonucleotide | bound/input enrichment |
| --- | --- |
| CUUCAGUUACAUCCCAGGGAAGAUGCUUGCAUCCCCAAUACAAACUAUGGUGUUCUCUUAAUAGAGUUUUUUGAAUUAUAUGGACGGCACUUCAAUUACUUAAAGACUGGCAUCCGGAUA | 1.46 ratio |
| GUUUUAUUACUGCUUGGAGAUGAGUCCAUGCAGAAACUUUUUGAAGGAGGAAAAGGCAGUGUGUUCCAAAGGGUGCUCUCCUGGAUCCCAUCGAAUAACCACCAGCUGCAGCUGGCUGGG | 0.226 ratio |
| AGUGAUCCACCUUACAUGGAAAUGAAGGGAAAGUUGUCAGCGAAGCUUUCUGAAAACAGUAAGAUACUGAUCUCUAUGGCUAAGGAAAACAUACCACCAAAUAGUCAACAGACCAGGGGU | 0.474 ratio |
| CUAACUUUUUGAGUUCACAAUUUACUUGGUCCAGAGUUUUCUAUUCUUUUUUUUUUUUAAACUAAUGAAUGACAUUUAGAUACUUCAUAAAAUUAUGAACAGAUAUGGAGGCCAGAGCUC | 0.64 ratio |
| ACCACCCUCUCUGGGGUUCAAGAAGAGUCCGCUCUUUGCUAUCUUCUCCAGGUUGAUGAGUUUAGGUUUUUGUUGGACUGUGGCUGGGAUGAACACUUCUCUGUGGACAUUAUUGAUUCC | 0.0485 ratio |

Set 2
Target: Interferon regulatory factor 7, full length, phosphomimetic (IRF7, Homo sapiens, UniProt Q92985, residues 1-503, S471D/S472D/S475D/S476D/S477D/S483D/S484D/S487D)
Technique: protein-binding microarray
Molecule type: double-stranded DNA, one strand shown
Matrix: in vitro
Concentration: 2200 nM top
Notes: 60-bp whole probe
Added: salmon DNA 0.4 mg/ml
Baseline: random background probes
Direction: higher = stronger binding
Target sequence (chain): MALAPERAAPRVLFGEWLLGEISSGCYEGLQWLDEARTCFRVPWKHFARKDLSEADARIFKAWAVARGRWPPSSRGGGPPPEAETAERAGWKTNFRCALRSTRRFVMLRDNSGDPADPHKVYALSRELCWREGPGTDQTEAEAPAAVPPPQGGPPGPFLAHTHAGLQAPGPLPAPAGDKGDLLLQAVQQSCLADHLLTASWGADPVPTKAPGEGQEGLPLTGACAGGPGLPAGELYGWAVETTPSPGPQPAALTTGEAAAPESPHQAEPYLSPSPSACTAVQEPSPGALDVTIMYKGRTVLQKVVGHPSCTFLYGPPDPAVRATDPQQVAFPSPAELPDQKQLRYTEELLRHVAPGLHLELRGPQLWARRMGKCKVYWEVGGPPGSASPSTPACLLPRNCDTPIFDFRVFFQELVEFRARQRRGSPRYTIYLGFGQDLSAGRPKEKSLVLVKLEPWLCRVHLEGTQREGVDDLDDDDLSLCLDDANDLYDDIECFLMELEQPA
| Oligonucleotide | fitted relative affinity |
| --- | --- |
| GCCTAGCACTTAGGTTTCGGTTCCCGTTAGTGCTAGGTCTTGATTCGCTTGACGCTGCTG | 12.3 z-score |
| GCCTAGCACTCAACATTGTGCAATCTTACTGTGCTAGTCTTGATTCGCTTGACGCTGCTG | 0.393 z-score |
| GCCTAGCACTCCCTTTCAGTTTTCCTATGGTGCTAGGTCTTGATTCGCTTGACGCTGCTG | 5.26 z-score |
| GCCTAGCACTTAGCTATCGGTATCGGTTAGTGCTAGGTCTTGATTCGCTTGACGCTGCTG | 0.813 z-score |

Set 3
Target: Phosphate system positive regulatory protein PHO4, full length, GST-tagged (PHO4, Saccharomyces cerevisiae, UniProt P07270, residues 1-312)
Technique: competition protein-binding microarray
Molecule type: double-stranded DNA, one strand shown
Matrix: in vitro
Concentration: 2 µM
Notes: whole 60-bp probe, lowest competitor level
Added: Cbf1 competitor, 0.05 µM
Direction: higher = stronger binding
All sequences stand within: … GTCTTGATTCGCTTGACGCTGCTG
Target sequence (chain): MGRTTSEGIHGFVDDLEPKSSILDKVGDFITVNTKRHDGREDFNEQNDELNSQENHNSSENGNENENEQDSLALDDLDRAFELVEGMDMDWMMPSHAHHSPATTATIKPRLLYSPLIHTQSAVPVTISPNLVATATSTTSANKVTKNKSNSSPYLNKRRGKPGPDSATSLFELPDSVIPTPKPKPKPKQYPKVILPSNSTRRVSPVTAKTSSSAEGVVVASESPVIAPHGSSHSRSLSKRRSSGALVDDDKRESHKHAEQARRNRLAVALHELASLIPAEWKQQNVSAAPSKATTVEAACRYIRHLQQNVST
| Oligonucleotide | fluorescence intensity [a.u.] |
| --- | --- |
| TTTTTCCAAGAGCTTCATATGCAAGCCCGAATCATT | 3010 |
| CCGCCCGGTGCAATACACACGGCAAGCACTTTATCA | 5500 |
| AAGGCGTCTTGTCACCACGTCTTCCAGTTATGGTCT | 5330 |
| GACCGTCTCTCCCAACACGTGCCAGAGCTTGTTGAT | 18800 |
| AAATTACTAAGTTGTCGGGTGGGTGACGCCGTATGA | 4170 |
| ATCAGGTTCTATCCAATACAAAAAGGAGTATGAAGA | 3110 |

Further values, each from its own experiment
| Molecule | target | assay | system | conditions | scale | quantity | result |
| --- | --- | --- | --- | --- | --- | --- | --- |
| PhoQ, residues 284 288 289 292 302 303 GANMMA | PhoP, residues 12 14 15 18 19 HLGGL (Escherichia coli, UniProt P23836) | Sort-seq, measured: YFP reporter | E. coli | PhoQ-PhoP variant library, added: 10 µM Mg2+ | baseline: high Mg2+ state, higher = stronger signaling | fold induction | 1.33 |

Some of these lines once more (set 2):
| Oligonucleotide | fitted relative affinity |
| --- | --- |
| GCCTAGCACTCAACATTGTGCAATCTTACTGTGCTAGTCTTGATTCGCTTGACGCTGCTG | 0.393 z-score |
| GCCTAGCACTCCCTTTCAGTTTTCCTATGGTGCTAGGTCTTGATTCGCTTGACGCTGCTG | 5.26 z-score |
| GCCTAGCACTTAGCTATCGGTATCGGTTAGTGCTAGGTCTTGATTCGCTTGACGCTGCTG | 0.813 z-score |
